# Experimental data collected from several papers.
# Lines come from different studies, so protocols differ.
# Target: Alpha-glucosidase MAL12 (MAL12, Saccharomyces cerevisiae S288c, UniProt P53341)
# Sequence of UniProt P53341 (whole entry, looked up): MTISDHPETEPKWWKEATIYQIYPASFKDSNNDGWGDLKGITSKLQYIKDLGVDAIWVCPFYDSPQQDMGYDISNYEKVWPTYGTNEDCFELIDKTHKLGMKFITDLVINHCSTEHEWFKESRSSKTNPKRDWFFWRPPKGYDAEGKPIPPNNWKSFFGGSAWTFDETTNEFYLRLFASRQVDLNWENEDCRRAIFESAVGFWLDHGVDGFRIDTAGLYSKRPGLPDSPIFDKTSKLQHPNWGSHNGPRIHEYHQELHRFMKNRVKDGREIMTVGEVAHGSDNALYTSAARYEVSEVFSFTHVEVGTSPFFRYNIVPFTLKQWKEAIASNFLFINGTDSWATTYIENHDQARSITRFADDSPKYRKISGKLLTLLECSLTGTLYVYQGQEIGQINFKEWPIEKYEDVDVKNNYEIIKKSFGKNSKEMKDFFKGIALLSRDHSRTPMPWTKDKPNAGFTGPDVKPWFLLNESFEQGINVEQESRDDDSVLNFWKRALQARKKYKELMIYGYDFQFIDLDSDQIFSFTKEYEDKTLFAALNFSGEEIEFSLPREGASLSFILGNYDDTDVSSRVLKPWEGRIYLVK
# Effect on: enzyme activity
# Action: inhibitor
SMILES,test,conditions,inhibition [%]
COc1c(-c2cccc(O)c2)oc2c(OC)c(O)cc(O)c2c1=O,absorbance,1 µM,6.8
O=C1C(=O)N(CCOc2ccc(F)cc2)c2ccc(Br)cc21,,"500 µM, pH 6.8",91.7
COc1ccc(-c2c(C(F)(F)F)oc3c(Cn4cnc5ccccc54)c(O)ccc3c2=O)cc1,,"25 µM, pH 6.8",79.6
O=C1C(=O)N(CCOc2ccc(Cl)cc2)c2ccc(Br)cc21,,"500 µM, pH 6.8",93.6
COc1cc(O)c2c(=O)c(OC)c(-c3ccc(O)c(O)c3)oc2c1,absorbance,100 µM,50.1
O=C(CN1C(C(=O)c2ccccc2)=C(O)c2ccccc2S1(=O)=O)Nc1ccccc1Br,absorbance,500 µM,69.4
COc1ccc(-c2c(C(F)(F)F)oc3c(Cn4nc(C)cc4C)c(O)ccc3c2=O)cc1,,"25 µM, pH 6.8",66.9
COc1cc(-c2oc3cc(O)cc(O)c3c(=O)c2OC)ccc1O,absorbance,25 µM,69.3
O=C1C(=O)N(CCOc2ccccc2)c2ccccc21,,"500 µM, pH 6.8",85
Cc1cccc(/C=C/C(=O)c2cnn(-c3ccccc3)c2C)c1,,100 µM,16.1
